Measurements collected from several papers.
Each numbered part is a random draw from the data of one study; scales do not carry over between parts. Positions count from the first letter of the parent shown. pIC50: −log10 of the molar value.
Chain of UniProt O43353 (whole entry, looked up): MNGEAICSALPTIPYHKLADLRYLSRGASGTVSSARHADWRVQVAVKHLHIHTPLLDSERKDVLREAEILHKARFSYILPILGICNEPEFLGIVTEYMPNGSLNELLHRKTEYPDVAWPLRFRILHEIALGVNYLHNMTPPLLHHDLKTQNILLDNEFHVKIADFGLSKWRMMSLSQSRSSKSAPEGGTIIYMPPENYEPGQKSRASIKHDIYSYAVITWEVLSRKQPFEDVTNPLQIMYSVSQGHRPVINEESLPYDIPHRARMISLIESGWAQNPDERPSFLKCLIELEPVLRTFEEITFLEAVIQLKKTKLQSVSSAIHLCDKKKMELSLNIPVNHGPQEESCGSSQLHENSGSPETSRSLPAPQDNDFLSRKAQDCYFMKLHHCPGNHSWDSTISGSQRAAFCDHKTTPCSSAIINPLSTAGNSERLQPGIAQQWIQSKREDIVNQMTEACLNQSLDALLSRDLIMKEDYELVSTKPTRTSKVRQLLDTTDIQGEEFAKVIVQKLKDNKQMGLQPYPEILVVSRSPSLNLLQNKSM

Block 1
Target: CCNE2, cyclin fold, Cln2 fusion (human)
Technique: yeast growth competition, sequencing
Sample: yeast
Setting: strong parent motif
Baseline: not given
Direction: higher = stronger binding
Parent: viral docking peptide; TSVRRALFTGGSD; partner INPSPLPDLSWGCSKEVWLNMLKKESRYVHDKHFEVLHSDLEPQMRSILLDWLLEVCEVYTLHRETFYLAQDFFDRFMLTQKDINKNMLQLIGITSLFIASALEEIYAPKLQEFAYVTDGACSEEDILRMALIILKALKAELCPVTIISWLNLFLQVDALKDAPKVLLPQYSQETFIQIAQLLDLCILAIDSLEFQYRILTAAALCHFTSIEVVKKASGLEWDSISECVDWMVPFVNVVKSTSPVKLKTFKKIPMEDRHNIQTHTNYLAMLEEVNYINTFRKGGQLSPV
| Substitution | normalised enrichment score |
| --- | --- |
| TSVRRALFTGGCD [S12C] | 4.13 |
| TSVTRALFTGGSD [R4T] | 0.682 |
| TSVRRALFMGGSD [T9M] | 3.41 |
| TSVRRALFTVGSD [G10V] | 3.39 |
| TSVRRKLFTGGSD [A6K] | 6.16 |

Block 2
Target: HLA class I histocompatibility antigen, B alpha chain, allele B*15:09 (Homo sapiens, UniProt P01889)
Read-out: peptide-MHC binding
Form: peptide
Tested at: concentration not given
| Molecule | binding |
| --- | --- |
| FLGRIWPS | inactive |
| FRDRGQHVL | active |
| FHYQDPFPL | active |

Other studies, line by line
| Structure (SMILES) | target or system | assay | setting | how to read | endpoint | value |
| --- | --- | --- | --- | --- | --- | --- |
| Oc1ccc2c3c1O[C@H]1c4[nH]c5c(c4C[C@@]4(O)[C@@H](C2)N(CC2CC2)CC[C@]314)C[C@@]1(O)[C@H]2Cc3ccc(O)c4c3[C@@]1(CCN2CC1CC1)[C@H]5O4 | mouse MPNST tumor cells | high-content nuclear imaging, refers to: cell number | 10 µM, 12 h, mean of 2 replicates | baseline: plate mean, higher = more cells | nuclei count | 0.915 z-score |
| CC(C)(C)c1cc(C=C(C#N)C#N)cc(Br)c1O | Receptor-interacting serine/threonine-protein kinase 2 (RIPK2, Homo sapiens, UniProt O43353) | enzyme activity, inhibitor, radiometric |  |  | pIC50 | 6.28 |

A few entries again (block 2):
| Molecule | binding |
| --- | --- |
| FLGRIWPS | inactive |
